# Assay results collected from several papers.
# “And” joins repeats or separate records; there may be more than shown. ± marks the error that the study gave.
# Tumor necrosis factor receptor superfamily member 9/Nectin-4: Tumor necrosis factor receptor superfamily member 9/Nectin-4 (Homo sapiens, UniProt Q07011+Q96NY8)
# TOP2A: DNA topoisomerase 2-alpha (TOP2A, Homo sapiens, UniProt P11388)
Compound,target,assay,system,conditions,how to read,measurement,result
CCCC[C@@H]1NC(=O)[C@H](Cc2ccc(O)cc2)NC(=O)[C@@H]2CCCN2C(=O)[C@H](CC(N)=O)NC(=O)[C@H](C)NC(=O)[C@H](Cc2ccccc2)NC(=O)[C@@H]2CSCCC(=O)N3CN(CN(C3)C(=O)CCSC[C@H](NC(C)=O)C(=O)N[C@@H](CC(C)(C)C)C(=O)N3CCC[C@H]3C(=O)N[C@@H](CCC(=O)O)C(=O)N[C@H](CCCCNC(=O)CCc3cn(CCOCCOCCOCCN(CCOCCOCCOCCC(=O)N[C@H]4CSCCC(=O)N5CN6CN(C5)C(=O)CCSC[C@H](NC(=O)[C@@H](CC(=O)O)NC(=O)[C@H](Cc5cccc7ccccc57)NC(=O)[C@@H]5CCCN5C4=O)C(=O)N[C@@H](CCSC)C(=O)N[C@@H](CCCCNC(=N)N)C(=O)N[C@@H](CC(=O)O)C(=O)N[C@@H](Cc4c[nH]c5ccccc45)C(=O)N[C@@H](CO)C(=O)N[C@@H]([C@@H](C)O)C(=O)N4CCC[C@H]4C(=O)N4C[C@H](O)C[C@H]4C(=O)N[C@@H](Cc4c[nH]c5ccccc45)C(=O)N[C@H](C(N)=O)CSCCC6=O)CCOCCOCCOCCn4cc(CCC(=O)NCCCC[C@H]5NC(=O)[C@H](CCC(=O)O)NC(=O)[C@@H]6CCCN6C(=O)[C@H](CC(C)(C)C)NC(=O)[C@@H](NC(C)=O)CSCCC(=O)N6CN7CN(C6)C(=O)CCSC[C@H](NC(=O)[C@H](Cc6ccc(O)cc6)NC(=O)[C@@H]6CCCN6C5=O)C(=O)N[C@@H](Cc5ccccc5)C(=O)N[C@@H](C)C(=O)N[C@@H](CC(N)=O)C(=O)N5CCC[C@H]5C(=O)N[C@@H](Cc5ccc(O)cc5)C(=O)N[C@@H](CCCC)C(=O)N[C@H](C(N)=O)CSCCC7=O)nn4)nn3)C(=O)N3CCC[C@H]3C(=O)N[C@@H](Cc3ccc(O)cc3)C(=O)N2)C(=O)CCSC[C@@H](C(N)=O)NC1=O,Tumor necrosis factor receptor superfamily member 9/Nectin-4,"reporter gene, agonist",HT-1376 coculture with reporter cells,,reference: background,Emax,25 fold
O=c1cc(-c2ccc([N+](=O)[O-])cc2)[nH]c2c(-c3ccc(Cl)cc3)c(Cc3ccccc3)nn12,"Sodium channel protein type 8 subunit alpha, C-terminal domain (SCN8A, Homo sapiens, UniProt Q9UQD0)","binder, SPR",,,,kon,4210 ± 24 M⁻¹ s⁻¹
c1ccc(C(NCc2cccnc2)(c2ccccc2)c2ccccc2)cc1,"KCNQ1 (Homo sapiens, UniProt P51787)",,,"100 pM, tail currents above -10 mV",,slope of normalized current vs voltage,0.4 V⁻¹
CC(C)[C@H](NC(=O)c1cc(-c2cnn3cc(-c4ccc(OCCN5CCCCC5)cc4)cnc23)cs1)C(F)(F)F,RSK3 (human),radiometric kinase,,15 nM,reference: RSK3 over ULK1,relative inhibition,0.0341
CC(C)(COP(=O)(O)OP(=O)(O)OC[C@H]1O[C@@H](n2cnc3c(N)ncnc32)[C@H](O)[C@@H]1OP(=O)(O)O)[C@@H](O)C(=O)NCCC(=O)NCCSC(=O)CCCc1ccccc1,"ACADM (Homo sapiens, UniProt P11310)","charge-transfer complex formation, anaerobic spectrophotometric titration",,,,apparent Kd,2160 nM
CC(=O)N[C@H](C(=O)N[C@@H](CC(N)=O)C(=O)N[C@@H](CCCCN)C(=O)N1CCC[C@H]1C(=O)N[C@@H](CC(C)C)C(=O)N1CCC[C@H]1C(=O)N1CCC[C@H]1C(=O)N[C@@H](CC(C)C)C(=O)N1CCC[C@H]1C(=O)N[C@H](C(=O)N[C@@H](C)C(N)=O)C(C)C)C(C)C,"High osmolarity signaling protein SHO1, SH3 domain (SHO1, Saccharomyces cerevisiae, UniProt P40073)","ligand binding, FTIR spectroscopy, item: asymmetric stretch band A",,"pH 7.0, SHO1 complex, together with: 4 mM peptide",,wavenumber,2226.8 ± 0.7 cm⁻¹
CCCC[C@@H]1NC(=O)[C@H](Cc2ccc(O)cc2)NC(=O)[C@@H](C)N(C)C(=O)[C@H](CC(=O)O)NC(=O)[C@H](C)NC(=O)[C@H](Cc2ccccc2)NC(=O)[C@@H]2CSCCC(=O)N3CN(CN(C3)C(=O)CCSC[C@H](NC(C)=O)C(=O)N[C@@H](CC(C)(C)C)C(=O)N3CCC[C@H]3C(=O)N[C@@H](CCC(=O)O)C(=O)N[C@H](CCCCNC(=O)CCc3cn(CCOCCOCCOCCN(CCOCCOCCOCCC(=O)N[C@H]4CSCCC(=O)N5CN6CN(C5)C(=O)CCSC[C@H](NC(=O)[C@@H](CC(=O)O)NC(=O)[C@H](Cc5cccc7ccccc57)NC(=O)[C@@H]5CCCN5C4=O)C(=O)N[C@@H](CCSC)C(=O)N[C@@H](CCCCNC(=N)N)C(=O)N[C@@H](CC(=O)O)C(=O)N[C@@H](Cc4c[nH]c5ccccc45)C(=O)N[C@@H](CO)C(=O)N[C@@H]([C@@H](C)O)C(=O)N4CCC[C@H]4C(=O)N4C[C@H](O)C[C@H]4C(=O)N[C@@H](Cc4c[nH]c5ccccc45)C(=O)N[C@H](C(N)=O)CSCCC6=O)CCOCCOCCOCCn4cc(CCC(=O)NCCCC[C@H]5NC(=O)[C@H](CCC(=O)O)NC(=O)[C@@H]6CCCN6C(=O)[C@H](CC(C)(C)C)NC(=O)[C@@H](NC(C)=O)CSCCC(=O)N6CN7CN(C6)C(=O)CCSC[C@H](NC(=O)[C@H](Cc6ccc(O)cc6)NC(=O)[C@@H]6CCCN6C5=O)C(=O)N[C@@H](Cc5ccccc5)C(=O)N[C@@H](C)C(=O)N[C@@H](CC(=O)O)C(=O)N(C)[C@H](C)C(=O)N[C@@H](Cc5ccc(O)cc5)C(=O)N[C@@H](CCCC)C(=O)N[C@H](C(N)=O)CSCCC7=O)nn4)nn3)C(=O)N3CCC[C@H]3C(=O)N[C@@H](Cc3ccc(O)cc3)C(=O)N2)C(=O)CCSC[C@@H](C(N)=O)NC1=O,Tumor necrosis factor receptor superfamily member 9/Nectin-4,"reporter gene, agonist",HT-1376 coculture with reporter cells,,reference: background,Emax,75 fold
Nc1ncnc2c1ncn2[C@@H]1O[C@H](COP(=O)(O)CP(=O)(O)OP(=O)(O)O)[C@@H](O)[C@H]1O,"P2X purinoceptor 1 (P2RX1, Homo sapiens, UniProt P51575, R139A)",calcium influx,,10 µM,reference: ionomycin response,calcium influx,100%
Cc1ccc(C(=O)Nc2ccc3ccccc3c2)o1,"Otop1 (Mus musculus, UniProt Q80VM9)","proton current, whole-cell patch clamp",cells expressing mouse Otop1,"100 µM, pH 6.0",,peak current ratio Ip2/Ip1,3.43 and 3.9 and 3.3 and 3.5 and 3.06 and 3.44
COc1ccc(Cc2nnc(NS(=O)(=O)c3ccc(N)cc3)s2)cc1,"Glutathione hydrolase 1 proenzyme, without transmembrane domain (Homo sapiens, UniProt P19440)","GSH hydrolysis, uncompetitive inhibitor",,"37 °C, binds gamma-glutamyl enzyme, together with: GSH 5-20 µM",,Kii,105 ± 14 µM
O=C(O)C1CCCNC1 (stereo not shown),"SLC6A6 (Homo sapiens, UniProt P31641, Y138A)","binding, microscale thermophoresis",,"250 µM, room temperature, together with: 50 nM labelled protein",higher = more binding,normalised MST signal,1.03
CCCCCCCC/C=C\CCCCCCCC(=O)OC[C@H](COP(=O)(O)OCC(O)COP(=O)(O)OC[C@@H](COC(=O)CCCCCCC/C=C\CCCCCCCC)OC(=O)CCCCCCC/C=C\CCCCCCCC)OC(=O)CCCCCCC/C=C\CCCCCCCC (stereo partly shown),"CYCS (Equus caballus, UniProt P00004)",bio-layer interferometry,,DOPC/cardiolipin membranes,,Ka,300000 ± 30000 M⁻¹
CC[C@@H]1[C@H](F)C(=O)N[C@@H]1COc1nccc2cc(C(N)=O)c(OC)cc12,"PRPF4B (Homo sapiens, UniProt Q13523)","ATP-site probe binding, ActivX profiling",THP-1 cell lysate,"0.04 mM, Lys2 site",,inhibition,4.1%
Cc1cccc(N2CC(C(=O)O)CC2=O)c1 (stereo not shown),"ATP-dependent RNA helicase DDX1 (Homo sapiens, UniProt Q92499)","binding, affinity selection mass spectrometry",,,reference: other proteins in batch,log fold enrichment,0.125
CC(=C/C(=O)O)/C=C/C=C(\C)C1C=C2C(C)(C)CCCC2(C)O1 (stereo not shown),"Rhodopsin (RHO, Homo sapiens, UniProt P08100, E181K)","ER retention, immunostaining co-localization, item: opsin with calnexin",COS-7 transfected E181K,20.00 µM,,Pearson correlation coefficient,0.42
N[C@@H](CC(=O)O)C(=O)O,"Methyl-accepting chemotaxis protein, ligand-binding domain (Pectobacterium atrosepticum, UniProt Q6D6I9)",isothermal titration calorimetry,SCRI1043,"pH 6.0, 25 °C, together with: 30 µM PacC ligand-binding domain",,ΔH,-1.7 ± 0.6 kcal/mol
COc1cc2ncnc(Nc3ccc(Oc4ccccc4)cc3)c2cc1OC,"SMUG1 (Homo sapiens, UniProt Q53HV7)","enzyme activity, activator, fluorescence",,20 µM,reference: control,activity,400 ± 100%
Nc1ncnc2c1ncn2[C@@H]1O[C@H](COP(=O)(O)OP(=O)(O)O)[C@@H](O)[C@H]1O,"CKMT1A (Homo sapiens, UniProt P12532, H99A)","substrate, Kinase-Glo luminescence",,"pH 7.0, reverse reaction, H61A mutant, together with: second substrate in excess",,kcat,28 ± 1 s⁻¹
CC(=O)N[C@H](C(=O)N1C[C@H](O)C[C@H]1C(=O)NCc1ccc(-c2scnc2C)cc1)C(C)(C)SCCCCCCNC(=O)C[C@@H]1N=C(c2ccc(Cl)cc2)c2c(sc(C)c2C)-n2c(C)nnc21,"Bromodomain-containing protein 4, BD2 (BRD4, Homo sapiens, UniProt O60885)","PROTAC, ITC",,"concentration not given, 25 °C",,binding stoichiometry,0.69 ± 0.02
Cc1ncsc1-c1ccc(CNC(=O)[C@@H]2C[C@H](O)CN2C(=O)[C@@H](NC(=O)C2(F)CC2)C(C)(C)C)c(OCCc2ccc(CN3CCN(c4cc(-c5ccccc5O)nnc4N)CC3)cc2)c1,"Protein polybromo-1, BD5 (PBRM1, Homo sapiens, UniProt Q86U86)","ternary complex binding, TR-FRET competition",,together with: VCB complex,,cooperativity factor alpha,1.5
C[C@H]1O[C@@H](O[C@H]2CC[C@@]3(C)[C@@H](CC[C@]4(C)[C@@H]3C=C[C@]35OC[C@@]6(CCC(C)(C)C[C@H]63)[C@@H](O)C[C@]54C)[C@]2(C)CO)[C@H](O)[C@@H](O[C@@H]2O[C@H](CO)[C@@H](O)[C@H](O)[C@H]2O)[C@H]1O,"SIRT1 (Homo sapiens, UniProt Q96EB6)","binding, microscale thermophoresis",,122 nM,,MST normalised fluorescence,885 a.u.
CCC(=O)NS(=O)(=O)c1ccc(-c2c(-c3ccccc3)noc2C)cc1,"Nuclear receptor subfamily 4 group A member 1 (NR4A1, Homo sapiens, UniProt P22736)","reporter gene, Gal4 hybrid reporter",,50 µM,reference: vehicle,activation,0.33 fold
COc1cc(/C=C/c2ccc(O)cc2)cc(OC)c1,"O-methyltransferase (Sorghum bicolor, UniProt A0A1B6PFV1)",biolayer interferometry,,together with: saturating SAH,reference: apo protein,kon fold increase,1.76 fold
N#Cc1ccn2c(-c3ccncc3)c(-c3ccc(F)cc3)nc2c1,"Mitogen-activated protein kinase HOG1 (HOG1, Candida albicans, UniProt Q92207)",MIB/MS competition binding,Candida albicans cell lysate,10 µM,"reference: DMSO, lower = stronger binding",log2 fold change,-2.49
O=c1nc(SCc2cc(F)cc(C(F)(F)F)c2)nc(SCc2ccc3nc(Cl)ccc3c2)[nH]1,TOP2A,ATPase activity,,"15.6 µM, together with: ATP 1 mM",,ATP hydrolysis rate,1.9 µM/min and 2.31 µM/min
Nc1ncnc2c1ncn2[C@@H]1O[C@H](COP(=O)(O)OP(=O)(O)O)[C@@H](O)[C@H]1O,"GUK1 (Homo sapiens, UniProt Q16774)",ITC,,molar ratio 0.6998,,ΔH,-2.03 kcal/mol
Cc1nc(CSc2nc(SCc3ccc(C(C)C)cc3)nc(=O)[nH]2)cs1,TOP2A,DNA relaxation,,500 µM,,mean relaxed DNA,0.3%
Nc1ncnc2c1ncn2[C@@H]1O[C@H](COP(=O)(O)OP(=O)(O)OP(=O)(O)O)[C@@H](O)[C@H]1O,"P2X purinoceptor 2 (P2RX2, Homo sapiens, UniProt Q9UBL9, D148K)","ion current, agonist, two-electrode voltage clamp",Xenopus oocytes,"concentration not given, first maximal application",,peak current,5420 nA

# For quick reference, copied from above:
Compound,target,assay,system,conditions,how to read,measurement,result
N[C@@H](CC(=O)O)C(=O)O,"Methyl-accepting chemotaxis protein, ligand-binding domain (Pectobacterium atrosepticum, UniProt Q6D6I9)",isothermal titration calorimetry,SCRI1043,"pH 6.0, 25 °C, together with: 30 µM PacC ligand-binding domain",,ΔH,-1.7 ± 0.6 kcal/mol
Cc1cccc(N2CC(C(=O)O)CC2=O)c1 (stereo not shown),"ATP-dependent RNA helicase DDX1 (Homo sapiens, UniProt Q92499)","binding, affinity selection mass spectrometry",,,reference: other proteins in batch,log fold enrichment,0.125
